Experimental data from different studies.
Protocols differ between the studies behind these lines. Values joined by “and” are separate records of one study, mostly repeats; a detail may differ. Numbers after ± are the reported error.
CDK2 with cyclin A2: Cyclin-dependent kinase 2, with cyclin A2 (CDK2, Homo sapiens, UniProt P24941)
PRKACB: cAMP-dependent protein kinase catalytic subunit beta (PRKACB, Homo sapiens, UniProt P22694)
TAOK2: Serine/threonine-protein kinase TAO2 (TAOK2, Homo sapiens, UniProt Q9UL54)
UniProt Q9UL54, sequence (whole entry, looked up): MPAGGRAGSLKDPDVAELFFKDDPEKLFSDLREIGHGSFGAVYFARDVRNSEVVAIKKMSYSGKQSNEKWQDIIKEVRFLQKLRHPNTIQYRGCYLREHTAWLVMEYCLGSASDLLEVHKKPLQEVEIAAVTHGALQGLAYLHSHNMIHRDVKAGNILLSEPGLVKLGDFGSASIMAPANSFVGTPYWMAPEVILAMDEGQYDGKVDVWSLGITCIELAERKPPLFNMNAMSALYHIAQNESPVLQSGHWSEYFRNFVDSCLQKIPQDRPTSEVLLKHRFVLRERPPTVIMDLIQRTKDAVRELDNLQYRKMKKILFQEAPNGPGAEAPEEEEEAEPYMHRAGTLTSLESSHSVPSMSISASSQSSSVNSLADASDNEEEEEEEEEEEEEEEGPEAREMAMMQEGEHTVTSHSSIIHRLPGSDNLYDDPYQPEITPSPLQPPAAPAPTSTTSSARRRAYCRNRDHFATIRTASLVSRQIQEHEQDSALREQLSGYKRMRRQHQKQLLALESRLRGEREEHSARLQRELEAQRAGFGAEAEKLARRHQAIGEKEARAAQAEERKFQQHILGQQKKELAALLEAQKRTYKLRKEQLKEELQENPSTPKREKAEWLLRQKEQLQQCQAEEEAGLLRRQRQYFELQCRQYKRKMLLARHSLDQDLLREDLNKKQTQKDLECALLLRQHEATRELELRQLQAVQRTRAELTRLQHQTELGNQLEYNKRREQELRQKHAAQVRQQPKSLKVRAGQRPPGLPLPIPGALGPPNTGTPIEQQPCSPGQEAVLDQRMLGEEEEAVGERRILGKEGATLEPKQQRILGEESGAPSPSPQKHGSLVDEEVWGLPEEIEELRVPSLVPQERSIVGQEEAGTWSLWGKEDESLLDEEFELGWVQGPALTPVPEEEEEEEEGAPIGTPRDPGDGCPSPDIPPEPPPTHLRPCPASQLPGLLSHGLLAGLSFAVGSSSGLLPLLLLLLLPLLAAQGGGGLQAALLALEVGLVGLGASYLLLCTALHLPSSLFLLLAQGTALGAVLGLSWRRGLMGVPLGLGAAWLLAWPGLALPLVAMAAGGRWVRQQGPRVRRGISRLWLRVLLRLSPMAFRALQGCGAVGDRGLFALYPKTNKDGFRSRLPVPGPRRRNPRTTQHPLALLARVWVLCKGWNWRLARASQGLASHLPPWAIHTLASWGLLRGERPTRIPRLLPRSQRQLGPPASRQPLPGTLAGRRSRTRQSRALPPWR
EPHA3: Ephrin type-A receptor 3 (EPHA3, Homo sapiens, UniProt P29320)
SRMS: Tyrosine-protein kinase Srms (SRMS, Homo sapiens, UniProt Q9H3Y6)
UniProt Q9H3Y6, sequence (whole entry, looked up): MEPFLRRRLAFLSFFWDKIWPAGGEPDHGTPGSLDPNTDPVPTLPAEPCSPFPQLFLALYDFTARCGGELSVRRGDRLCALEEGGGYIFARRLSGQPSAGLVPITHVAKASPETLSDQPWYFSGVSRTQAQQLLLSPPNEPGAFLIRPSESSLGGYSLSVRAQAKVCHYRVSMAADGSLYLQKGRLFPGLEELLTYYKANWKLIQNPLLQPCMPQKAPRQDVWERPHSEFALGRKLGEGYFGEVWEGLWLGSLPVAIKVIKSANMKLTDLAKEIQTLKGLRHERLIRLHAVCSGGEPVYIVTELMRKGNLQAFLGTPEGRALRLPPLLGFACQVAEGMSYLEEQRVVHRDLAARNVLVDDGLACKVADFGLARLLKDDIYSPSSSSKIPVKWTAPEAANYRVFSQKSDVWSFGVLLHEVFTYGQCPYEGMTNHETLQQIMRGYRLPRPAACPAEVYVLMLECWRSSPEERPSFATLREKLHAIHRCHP
HIPK2: Homeodomain-interacting protein kinase 2 (HIPK2, Homo sapiens, UniProt Q9H2X6)
UniProt Q9H2X6, sequence (whole entry, looked up): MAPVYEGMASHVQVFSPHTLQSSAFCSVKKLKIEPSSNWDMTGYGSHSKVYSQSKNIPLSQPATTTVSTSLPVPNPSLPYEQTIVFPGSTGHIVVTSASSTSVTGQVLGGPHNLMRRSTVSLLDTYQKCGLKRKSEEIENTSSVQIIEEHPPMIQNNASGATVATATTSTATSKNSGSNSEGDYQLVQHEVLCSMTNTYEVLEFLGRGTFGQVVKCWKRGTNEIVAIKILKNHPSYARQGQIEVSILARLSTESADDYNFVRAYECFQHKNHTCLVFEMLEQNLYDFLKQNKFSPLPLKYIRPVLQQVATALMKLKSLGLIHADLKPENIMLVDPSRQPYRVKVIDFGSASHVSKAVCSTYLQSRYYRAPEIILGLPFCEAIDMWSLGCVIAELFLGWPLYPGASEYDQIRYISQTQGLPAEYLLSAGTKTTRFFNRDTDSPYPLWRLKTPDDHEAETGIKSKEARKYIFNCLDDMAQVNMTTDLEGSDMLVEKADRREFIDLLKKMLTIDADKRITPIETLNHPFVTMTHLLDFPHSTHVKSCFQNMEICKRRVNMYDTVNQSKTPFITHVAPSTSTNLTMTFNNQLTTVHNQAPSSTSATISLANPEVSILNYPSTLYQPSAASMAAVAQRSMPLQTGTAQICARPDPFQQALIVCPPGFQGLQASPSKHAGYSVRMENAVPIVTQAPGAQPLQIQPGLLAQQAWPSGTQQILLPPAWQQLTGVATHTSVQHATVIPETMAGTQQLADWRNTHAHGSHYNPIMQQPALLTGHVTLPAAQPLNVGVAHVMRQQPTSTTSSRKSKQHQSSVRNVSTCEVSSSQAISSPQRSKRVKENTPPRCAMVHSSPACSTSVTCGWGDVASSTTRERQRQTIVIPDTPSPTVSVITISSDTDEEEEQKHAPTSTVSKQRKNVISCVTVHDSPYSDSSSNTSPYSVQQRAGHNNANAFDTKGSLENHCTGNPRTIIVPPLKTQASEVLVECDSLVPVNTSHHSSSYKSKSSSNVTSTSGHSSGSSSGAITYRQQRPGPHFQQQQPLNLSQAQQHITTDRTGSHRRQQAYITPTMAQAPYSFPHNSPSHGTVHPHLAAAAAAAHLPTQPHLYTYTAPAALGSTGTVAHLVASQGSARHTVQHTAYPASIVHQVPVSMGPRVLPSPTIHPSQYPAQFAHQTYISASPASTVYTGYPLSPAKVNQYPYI
UniProt Q92626, sequence (whole entry, looked up): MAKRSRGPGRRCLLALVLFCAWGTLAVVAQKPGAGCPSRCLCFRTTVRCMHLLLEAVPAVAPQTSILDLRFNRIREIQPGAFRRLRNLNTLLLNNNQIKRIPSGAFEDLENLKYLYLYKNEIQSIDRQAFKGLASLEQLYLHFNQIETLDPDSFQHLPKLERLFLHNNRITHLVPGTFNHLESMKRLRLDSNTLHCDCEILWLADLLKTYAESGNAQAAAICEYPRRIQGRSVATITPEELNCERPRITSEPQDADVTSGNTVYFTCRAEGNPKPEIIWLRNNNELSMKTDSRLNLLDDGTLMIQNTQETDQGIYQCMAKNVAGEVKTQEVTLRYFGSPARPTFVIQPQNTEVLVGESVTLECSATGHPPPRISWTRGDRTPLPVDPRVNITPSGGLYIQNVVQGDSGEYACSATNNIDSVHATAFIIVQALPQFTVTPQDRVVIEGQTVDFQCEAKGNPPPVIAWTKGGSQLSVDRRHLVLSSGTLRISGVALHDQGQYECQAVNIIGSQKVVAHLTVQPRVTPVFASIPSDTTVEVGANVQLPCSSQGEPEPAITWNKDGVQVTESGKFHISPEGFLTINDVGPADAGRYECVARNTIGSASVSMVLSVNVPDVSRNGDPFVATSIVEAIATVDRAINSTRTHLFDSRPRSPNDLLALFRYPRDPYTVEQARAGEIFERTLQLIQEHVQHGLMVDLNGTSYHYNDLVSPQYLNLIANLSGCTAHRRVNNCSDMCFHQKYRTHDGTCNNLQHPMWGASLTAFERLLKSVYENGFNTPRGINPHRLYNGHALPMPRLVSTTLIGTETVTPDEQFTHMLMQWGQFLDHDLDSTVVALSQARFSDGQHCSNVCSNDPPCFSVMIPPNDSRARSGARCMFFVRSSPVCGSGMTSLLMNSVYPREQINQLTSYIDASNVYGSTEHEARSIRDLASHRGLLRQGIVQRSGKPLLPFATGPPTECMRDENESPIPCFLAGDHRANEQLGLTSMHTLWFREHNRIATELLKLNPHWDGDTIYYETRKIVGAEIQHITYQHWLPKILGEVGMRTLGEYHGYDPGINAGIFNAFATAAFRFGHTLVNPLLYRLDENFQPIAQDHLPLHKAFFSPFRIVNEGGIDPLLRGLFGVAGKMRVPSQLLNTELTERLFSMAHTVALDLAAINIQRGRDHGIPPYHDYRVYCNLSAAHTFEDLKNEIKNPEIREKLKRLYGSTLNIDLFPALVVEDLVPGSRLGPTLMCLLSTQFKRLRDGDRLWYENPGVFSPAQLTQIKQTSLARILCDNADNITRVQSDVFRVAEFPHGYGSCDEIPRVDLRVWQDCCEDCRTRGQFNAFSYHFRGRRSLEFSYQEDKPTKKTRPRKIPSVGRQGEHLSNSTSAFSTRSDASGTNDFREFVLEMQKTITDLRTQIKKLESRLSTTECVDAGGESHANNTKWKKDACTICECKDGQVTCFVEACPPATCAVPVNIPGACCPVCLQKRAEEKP
UniProt P0AEE8, sequence (whole entry, looked up): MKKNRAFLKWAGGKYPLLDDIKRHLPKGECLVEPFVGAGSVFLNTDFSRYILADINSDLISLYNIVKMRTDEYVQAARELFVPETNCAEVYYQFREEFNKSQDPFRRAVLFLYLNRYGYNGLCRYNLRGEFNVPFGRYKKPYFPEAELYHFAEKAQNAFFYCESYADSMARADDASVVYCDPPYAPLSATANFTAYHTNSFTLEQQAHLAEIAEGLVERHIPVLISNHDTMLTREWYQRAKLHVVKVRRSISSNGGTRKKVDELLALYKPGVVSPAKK
UniProt Q8TDX7, sequence (whole entry, looked up): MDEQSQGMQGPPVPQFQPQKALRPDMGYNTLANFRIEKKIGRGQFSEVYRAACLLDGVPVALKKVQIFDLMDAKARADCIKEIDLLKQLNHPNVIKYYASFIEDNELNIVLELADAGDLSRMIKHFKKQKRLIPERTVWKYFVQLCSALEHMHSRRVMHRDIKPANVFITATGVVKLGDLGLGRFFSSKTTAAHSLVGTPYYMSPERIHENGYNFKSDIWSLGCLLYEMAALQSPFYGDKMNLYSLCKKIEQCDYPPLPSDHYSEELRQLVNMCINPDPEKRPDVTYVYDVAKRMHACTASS

CNC(=O)c1cc(Oc2ccc(NC(=O)Nc3ccc(Cl)c(C(F)(F)F)c3)cc2)ccn1  remaining activity (CDK2 with cyclin A2; kinase activity, inhibitor, ADP-Glo kinase; 10 nM): 63.3%
C=CC(=O)N1CCC([C@@H]2CCNc3c(C(N)=O)c(-c4ccc(Oc5ccccc5)cc4)nn32)CC1  remaining activity (PRKACB; kinase activity, inhibitor, HotSpot radiometric; 100 nM, added: ATP 10 µM): 93.9%
Nc1ncc2c(n1)-c1c([nH]c3ccc(-c4ccc(F)cc4)cc13)CCC2  remaining activity (TAOK2; kinase activity, inhibitor, radiometric; 1 µM, added: ATP at Km): 77%
Cc1cc(Nc2cc(N3CCN(C)CC3)nc(Sc3ccc(NC(=O)C4CC4)cc3)n2)[nH]n1  remaining activity (NEK7 (Homo sapiens, UniProt Q8TDX7); kinase activity, KinaseProfiler; 0.03 µM, species human; relative to: control): 107%
CC(C)Oc1cc(N2CCN(C)CC2)ccc1Nc1nc(N)n(C(=O)NCc2ccccc2S(=O)(=O)C(C)C)n1  remaining activity (IGF1R (Homo sapiens, UniProt P08069); enzyme activity; 10 µM; relative to: control): 5.4%
C=CC(=O)N1CCC[C@@H](n2nc(-c3ccc(Oc4ccccc4)cc3)c3c(N)ncnc32)C1  remaining activity (EPHA3; 10 µM): 81.5%
COc1cc(Nc2ncc3c(n2)-c2ccc(Cl)cc2C(c2c(F)cccc2OC)=NC3)ccc1C(=O)O  remaining activity (PRKACA; kinase activity; 1 µM): 59%
COc1ccc(F)cc1C(=O)NCc1ccc(-c2nn([C@@H](C)C(F)(F)F)c(N)c2C(N)=O)cc1  remaining activity (SRMS; kinase activity, inhibitor, HotSpot radiometric; 1000 nM, added: ATP at Km): 102 ± 2.6%
COc1cc(F)ccc1-c1ncnc(Nc2cccc(C[S@](C)(=N)=O)c2)n1  remaining activity (HIPK2; kinase activity; 10 µM, added: 10 µM ATP): 93%
O=C(NC1CCC1)c1ccc2nc(-c3cccc(NS(=O)(=O)NCCN4CCCCC4)c3)cn2c1  remaining activity (WNK1 (Homo sapiens, UniProt Q9H4A3); enzyme activity; 10 µM): 82%
C[C@H]1[C@H](OC(=O)CCC(=O)O)O[C@@H]2O[C@@]3(C)CC[C@H]4[C@H](C)CC[C@@H]1[C@@]24OO3  remaining activity (Non-structural polyprotein pORF1, RNA-dependent RNA polymerase (Hepatitis E virus genotype 1, UniProt P33424); polymerase activity, inhibitor, colorimetric; 9.7 µM; relative to: untreated): 70.2%
COc1cc(N2CCN(C)CC2)ccc1Nc1nc(N)n(C(=S)NCc2c(Cl)cccc2Cl)n1  remaining activity (TAOK2; enzyme activity; 10 µM; relative to: control): 2.8%
CNc1ncc2c(/C=C/C(=O)N3CCC(OC)CC3)nn(Cc3cccc(C(F)(F)F)c3)c2n1  remaining activity (EPHA3; kinase activity, inhibitor; 1 µM; relative to: untreated control): 90%
NC/C(=C\F)COc1cccc(Cn2c(=S)[nH]c(=O)c3[nH]cnc32)c1  remaining activity (Peroxidasin homolog (PXDN, Homo sapiens, UniProt Q92626); enzyme activity, inhibitor, Amplex UltraRed; 1.25 µM; relative to: control): 96.1% and 94.9%
CC(=O)Nc1c(N)nc(SCC(=O)NN)[nH]c1=O  remaining activity (CDK2 with cyclin A2; kinase activity; 5 nM): 85.4%
O=C1NC(=O)/C(=C/c2ccc(-c3ccc(F)cc3O)o2)S1  remaining activity (HIPK2; enzyme activity; 10 µM): 3%
Cc1cc(NC(=O)c2cccc(NC(=O)/C=C/CN(C)C)c2)ccc1Nc1nccc(-c2cccnc2)n1  remaining activity (MAPK9 (Homo sapiens, UniProt P45984); enzyme activity, inhibitor; 4.938 µM, unit not given; relative to: vehicle): 0.037
COc1cc(-c2cncc3c2CN(C)Cc2cc(N4CCNCC4)ccc2-3)cc(OC)c1OC  remaining activity (CIT (Homo sapiens, UniProt O14578); kinase activity; 1 µM, human enzyme, added: ATP 10 µM; relative to: DMSO control): 97%
Nc1ncnc2c1ncn2C1OC(CSCCNCc2cccc(-c3ccccc3)c2)C(O)C1O (centres unmarked)  remaining activity (dam (Escherichia coli K-12, UniProt P0AEE8); 10 µM): 71.1%
C=CC(=O)N1CCC[C@@H](n2nc(-c3ccc(Oc4ccccc4)cc3)c3c(N)ncnc32)C1  remaining activity (PRKACB; kinase activity, inhibitor, HotSpot radiometric; 100 nM, added: ATP 10 µM): 79.4 ± 0.5%
CC(=O)Nc1c(N)nc(SCC(=O)N/N=C/c2ccc([N+](=O)[O-])cc2)[nH]c1=O  remaining activity (CDK2 with cyclin A2; kinase activity; 20 nM): 78.7%
O=C(N/N=C/c1ccc2cc[nH]c2c1)c1cc2c(s1)CCCC2  remaining activity (dxs (Deinococcus radiodurans, UniProt Q9RUB5); enzyme activity, partial inhibitor; concentration not given): 40%
CCOc1cc(N2CCN(C)CC2)ccc1Nc1nc(N)n(C(=O)NCc2ccccc2S(=O)(=O)C(C)C)n1  remaining activity (CDC42BPA (Homo sapiens, UniProt Q5VT25); enzyme activity; 10 µM; relative to: control): 19%
CC#CC(=O)N1CCC[C@H]1c1nc(-c2ccc(C(=O)Nc3ccccn3)cc2)c2c(N)nccn12  remaining activity (SRMS; kinase activity, inhibitor, HotSpot radiometric; 100 nM, added: ATP 10 µM): 92.7 ± 1.8%
O=C(O)c1ccc(Nc2ncc3c(n2)-c2ccc(Cl)cc2C(c2c(F)cccc2F)=NC3)cc1  remaining activity (human CSK(h); kinase activity; 1 µM): 105%
COc1cc(N2CCN(C)CC2)ccc1Nc1nc(N)n(C(=O)NCc2ccccc2S(=O)(=O)C(C)C)n1  remaining activity (DCLK2 (Homo sapiens, UniProt Q8N568); enzyme activity; 10 µM; relative to: control): 17%

Some of these lines once more:
C=CC(=O)N1CCC([C@@H]2CCNc3c(C(N)=O)c(-c4ccc(Oc5ccccc5)cc4)nn32)CC1  remaining activity (PRKACB; kinase activity, inhibitor, HotSpot radiometric; 100 nM, added: ATP 10 µM): 93.9%
O=C(NC1CCC1)c1ccc2nc(-c3cccc(NS(=O)(=O)NCCN4CCCCC4)c3)cn2c1  remaining activity (WNK1 (Homo sapiens, UniProt Q9H4A3); enzyme activity; 10 µM): 82%
